Earlier results that unrelated publications cite.
Protocols differ between the studies behind these lines. ± gives the spread as reported.
Sequence of UniProt P42336 (whole entry, unmodified, looked up): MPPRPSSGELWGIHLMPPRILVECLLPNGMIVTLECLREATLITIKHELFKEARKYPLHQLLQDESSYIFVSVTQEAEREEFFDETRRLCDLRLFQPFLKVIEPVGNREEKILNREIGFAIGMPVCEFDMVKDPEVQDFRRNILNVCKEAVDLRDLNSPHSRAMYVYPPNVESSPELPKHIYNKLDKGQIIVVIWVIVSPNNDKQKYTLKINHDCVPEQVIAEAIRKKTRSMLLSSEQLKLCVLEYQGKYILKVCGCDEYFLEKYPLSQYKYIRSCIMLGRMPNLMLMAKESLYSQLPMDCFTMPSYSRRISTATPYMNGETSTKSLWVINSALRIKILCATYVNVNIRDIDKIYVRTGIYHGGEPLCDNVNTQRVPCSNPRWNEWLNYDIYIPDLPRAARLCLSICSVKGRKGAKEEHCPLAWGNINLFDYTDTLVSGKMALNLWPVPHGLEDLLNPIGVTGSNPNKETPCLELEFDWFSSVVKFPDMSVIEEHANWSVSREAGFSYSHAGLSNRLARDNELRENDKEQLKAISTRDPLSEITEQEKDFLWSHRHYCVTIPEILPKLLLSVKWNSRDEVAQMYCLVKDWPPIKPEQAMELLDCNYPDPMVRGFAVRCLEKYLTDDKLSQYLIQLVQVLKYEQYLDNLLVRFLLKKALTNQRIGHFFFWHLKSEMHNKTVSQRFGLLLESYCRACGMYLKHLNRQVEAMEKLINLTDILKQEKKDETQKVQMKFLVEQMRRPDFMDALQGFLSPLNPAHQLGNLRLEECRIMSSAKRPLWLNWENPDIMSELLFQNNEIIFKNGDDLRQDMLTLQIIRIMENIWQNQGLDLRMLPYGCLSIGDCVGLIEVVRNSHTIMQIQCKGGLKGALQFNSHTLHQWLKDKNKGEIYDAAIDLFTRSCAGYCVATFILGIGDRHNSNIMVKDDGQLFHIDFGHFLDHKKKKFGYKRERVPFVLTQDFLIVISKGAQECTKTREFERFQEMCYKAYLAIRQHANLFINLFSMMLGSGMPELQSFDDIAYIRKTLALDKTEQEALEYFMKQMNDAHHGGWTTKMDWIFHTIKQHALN
Sequence of UniProt O14744 (whole entry, looked up): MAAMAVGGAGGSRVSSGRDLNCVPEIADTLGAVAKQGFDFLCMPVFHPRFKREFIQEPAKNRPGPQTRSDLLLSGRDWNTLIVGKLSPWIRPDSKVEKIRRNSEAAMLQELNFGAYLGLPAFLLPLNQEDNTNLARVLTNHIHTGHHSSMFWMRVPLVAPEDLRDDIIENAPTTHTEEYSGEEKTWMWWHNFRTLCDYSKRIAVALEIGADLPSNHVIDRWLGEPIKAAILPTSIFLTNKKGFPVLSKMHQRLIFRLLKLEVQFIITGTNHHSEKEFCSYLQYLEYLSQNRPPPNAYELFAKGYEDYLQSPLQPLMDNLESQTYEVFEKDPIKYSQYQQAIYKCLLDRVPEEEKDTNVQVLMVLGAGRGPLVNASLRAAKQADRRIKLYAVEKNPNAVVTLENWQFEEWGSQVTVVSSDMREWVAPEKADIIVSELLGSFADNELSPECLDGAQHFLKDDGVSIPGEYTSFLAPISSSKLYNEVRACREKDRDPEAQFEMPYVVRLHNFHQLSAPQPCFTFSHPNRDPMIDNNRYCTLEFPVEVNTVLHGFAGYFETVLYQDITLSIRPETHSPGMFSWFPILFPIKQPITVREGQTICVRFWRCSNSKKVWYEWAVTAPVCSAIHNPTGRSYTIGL
Sequence of UniProt Q9UBF8 (whole entry, looked up): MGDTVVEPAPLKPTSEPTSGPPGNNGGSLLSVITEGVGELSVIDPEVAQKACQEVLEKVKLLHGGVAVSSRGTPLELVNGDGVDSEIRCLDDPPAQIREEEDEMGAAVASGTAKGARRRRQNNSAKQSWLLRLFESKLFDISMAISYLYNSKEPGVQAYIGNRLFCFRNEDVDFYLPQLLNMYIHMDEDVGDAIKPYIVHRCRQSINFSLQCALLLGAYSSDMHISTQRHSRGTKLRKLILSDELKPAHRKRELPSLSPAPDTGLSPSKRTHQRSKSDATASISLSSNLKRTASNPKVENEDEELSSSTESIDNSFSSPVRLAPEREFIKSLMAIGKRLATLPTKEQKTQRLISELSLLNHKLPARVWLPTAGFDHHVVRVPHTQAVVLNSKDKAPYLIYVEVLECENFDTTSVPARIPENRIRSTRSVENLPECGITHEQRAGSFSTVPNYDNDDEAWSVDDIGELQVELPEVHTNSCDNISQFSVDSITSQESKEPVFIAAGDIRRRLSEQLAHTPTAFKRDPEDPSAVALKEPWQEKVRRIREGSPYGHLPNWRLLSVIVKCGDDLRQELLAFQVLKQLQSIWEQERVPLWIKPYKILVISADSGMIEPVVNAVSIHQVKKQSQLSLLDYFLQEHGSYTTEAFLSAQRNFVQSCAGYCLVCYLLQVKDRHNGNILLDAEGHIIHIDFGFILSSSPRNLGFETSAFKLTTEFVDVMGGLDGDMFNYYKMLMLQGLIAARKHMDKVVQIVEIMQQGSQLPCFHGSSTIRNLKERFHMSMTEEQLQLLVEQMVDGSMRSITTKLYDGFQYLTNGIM
Sequence of UniProt P33981 (whole entry, looked up): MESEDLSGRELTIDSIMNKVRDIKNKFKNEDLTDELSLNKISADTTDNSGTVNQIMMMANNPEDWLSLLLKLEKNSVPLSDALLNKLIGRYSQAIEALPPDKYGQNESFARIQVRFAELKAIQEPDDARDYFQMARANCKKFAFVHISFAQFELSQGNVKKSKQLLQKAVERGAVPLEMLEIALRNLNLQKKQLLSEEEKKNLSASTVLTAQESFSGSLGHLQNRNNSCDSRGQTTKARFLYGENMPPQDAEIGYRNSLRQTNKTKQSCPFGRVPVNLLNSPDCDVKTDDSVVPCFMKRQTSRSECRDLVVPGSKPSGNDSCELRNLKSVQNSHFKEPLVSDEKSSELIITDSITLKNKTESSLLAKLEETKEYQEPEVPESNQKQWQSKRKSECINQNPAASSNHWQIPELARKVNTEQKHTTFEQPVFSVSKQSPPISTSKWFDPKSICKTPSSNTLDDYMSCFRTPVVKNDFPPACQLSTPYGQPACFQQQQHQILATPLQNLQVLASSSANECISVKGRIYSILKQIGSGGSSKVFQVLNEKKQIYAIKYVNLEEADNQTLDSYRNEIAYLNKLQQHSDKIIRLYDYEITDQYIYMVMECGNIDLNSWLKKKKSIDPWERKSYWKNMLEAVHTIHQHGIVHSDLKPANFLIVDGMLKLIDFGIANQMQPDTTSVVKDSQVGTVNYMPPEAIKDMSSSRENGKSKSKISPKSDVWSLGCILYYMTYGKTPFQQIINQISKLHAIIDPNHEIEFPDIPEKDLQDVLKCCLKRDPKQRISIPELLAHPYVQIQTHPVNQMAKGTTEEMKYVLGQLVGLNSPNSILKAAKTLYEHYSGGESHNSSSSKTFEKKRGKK

SMILES	target or system	assay	test system	conditions	how to read	measurement	value
C[C@H](Cn1cnc2c(N)ncnc21)OCP(=O)(O)O	hepatitis B virus	measured: HBV DNA	human HBeAg-negative patients	dose not given, week 4, after discontinuation		virologic relapse	34%
CCCN(CCC)S(=O)(=O)c1ccc(C(=O)O)cc1		substrate uptake, inhibitor	human kidney slices	15 min, together with: adefovir 0.1 µM		Ki	12600 nM
CC1(C)S[C@@H]2[C@H](NC(=O)[C@H](N)c3ccccc3)C(=O)N2[C@H]1C(=O)O	Enterobacter cloacae		clinical isolate RKI-No_243/15			MIC	> 16 µg/mL
CCN(c1cc(-c2ccc(CN3CCOCC3)cc2)cc(C(=O)NCc2c(C)cc(C)[nH]c2=O)c1C)C1CCOCC1	Protein arginine N-methyltransferase 5, with WDR77 (PRMT5, Homo sapiens, UniProt O14744)	enzyme activity, inhibitor		1 µM		inhibition	2 ± 6%
Nc1cc(C(F)(F)F)c(-c2nc(N3CCOCC3)nc(N3CCOCC3)n2)cn1	A-427					GI50	753 nM
CNC(C)C1CCC(N)C(OC2C(N)CC(N)C(OC3OCC(C)(O)C(NC)C3O)C2O)O1 (stereo not drawn)	Pseudomonas aeruginosa		clinical isolate RKI-No_48/09			MIC	> 8 µg/mL
CS(=O)(=O)c1ccc(Nc2ncnc3sc(Nc4c(Cl)cccc4Cl)nc23)cc1	TRPV1	calcium flux, antagonist	HEK293	together with: capsaicin		IC50	5 nM
C=C[C@@H]1C[C@]1(NC(=O)[C@@H]1C[C@@H]2CN1C(=O)[C@H](C(C)(C)C)NC(=O)O[C@@H]1C[C@H]1CCCCCc1nc3ccc(OC)cc3nc1O2)C(=O)NS(=O)(=O)C1CC1	CYP2B6	inhibitor	human liver microsomes			IC50	66000 nM
COc1ccccc1Oc1cccc(CN2CCC(NC(=O)C3CC(=O)Nc4ccccc43)CC2)c1 (stereo not drawn)	human CCR8 Y114A mutant (TM3)	IP accumulation, agonist				EC50	945 nM
CC(CNC(=O)c1ccc(OC(F)(F)F)cc1)c1ccc(O)c2ccc(O)cc12 (stereo not drawn)	TRPV1	calcium flux, antagonist	HEK293	together with: capsaicin		IC50	14 nM
Nc1cc(C(F)(F)F)c(-c2nc(N3CCOCC3)nc(N3CCOCC3)n2)cn1	PI4KB (Homo sapiens, UniProt Q9UBF8)	KinomeScan competition binding		10 µM		remaining binding	95%
C[C@H]1COCCN1c1nc(-c2cnc(N)cc2C(F)F)nc(N2CCOCC2)n1	SW48					GI50	200 nM
COc1ccccc1Oc1cccc(CN2CCC3(CC2)C(=O)NCN3CCc2ccccc2)c1	human CCR8 S110A mutant (TM3)	IP accumulation, agonist				EC50	1.5 nM
Cc1c(C#N)cccc1[C@@H](C)Nc1nnc(C)c2cnc(N3CCOCC3)cc12	NCI-H1435	ERK phosphorylation, In-Cell Western, measured: phospho-ERK				IC50	89.3 ± 6.5 nM
Cn1ncnc1[C@H]1c2n[nH]c(=O)c3cc(F)cc(c23)N[C@@H]1c1ccc(F)cc1	HepG2	mitochondrial membrane potential		concentration not given, Tox21		activity outcome	inactive
Cc1cnc(N2CC3(CCOCC3)C2)c(C(=O)Nc2ccc(C(=O)N3CCc4cc(C(=O)Nc5c(C)cccc5F)sc4-c4ccccc43)cc2)c1	respiratory syncytial virus	viral replication, plaque reduction	mouse, lung homogenate			ID50	0.021 mg/kg
CC(C)(C)c1ccc(NC(=O)c2ccc(-c3ncccc3[N+](=O)[O-])cc2)cc1	TRPV1	calcium flux, antagonist	HEK293	together with: capsaicin		IC50	5 nM
CCCCC(C)C(=O)O (stereo not drawn)	CALUX reporter cell lines	reporter gene		cell-total, minimum across		EC10	4000 nM
O=C(NCc1ccc(OC(F)(F)F)cc1)Nc1cccc2ccc(O)cc12	TRPV1	calcium flux, antagonist	HEK293	together with: capsaicin		IC50	27 nM
Cc1cc(NC(=O)c2cccc(NC(=O)/C=C/CN(C)C)c2)ccc1Nc1nccc(-c2cccnc2)n1	TTK (Homo sapiens, UniProt P33981)	enzyme activity, inhibitor		1 µM	baseline: vehicle	remaining activity	46%
COc1ccccc1Oc1cccc(CN2CCC(NC(=O)C(CCN3CCCC3)c3ccccc3)CC2)c1 (stereo not drawn)	human CCR8 Y42A mutant (TM1)	IP accumulation, agonist				EC50	172 nM
C=CC(=O)N1CCC(C(=O)NCC(=O)N2CCN(c3nc(-c4cnc(N)nc4C(F)F)nc(N4CCOCC4)n3)CC2)CC1	PIK3CA (Homo sapiens, UniProt P42336, Q546K)	kinase activity		1 µM		remaining activity	0%
COc1ccccc1Oc1cccc(CN2CCC(O)(c3ccccc3C(=O)O)CC2)c1	human CCR8 Y42A mutant (TM1)	IP accumulation, agonist				EC50	131 nM
O=C(NCC(Cc1ccccc1)c1ccc(F)cc1)Nc1cccc2cnccc12 (stereo not drawn)	TRPV1	calcium flux, antagonist	HEK293	together with: capsaicin		IC50	5 nM
O=C(C1CCOCC1)N1CC(=O)N2CCc3ccccc3[C@@H]2C1	TRPM channel TRPM_PZQ (Schistosoma mansoni, UniProt A0A5K4F0X5)					EC50	8100 ± 700 nM
CCNS(=O)(=O)c1ccc(OC)cc1C1(O)CCN(Cc2cccc(Oc3ccccc3OC)c2)CC1	human CCR8 Y114A mutant (TM3)	IP accumulation, agonist				EC50	191 nM
FC(F)(F)c1ccc(Nc2ncnc3sc(Nc4c(Cl)cccc4Cl)nc23)cc1Cl	TRPV1	calcium flux, antagonist	HEK293	together with: capsaicin		IC50	21 nM

Repeated from above:
SMILES	target or system	assay	test system	conditions	how to read	measurement	value
CC1(C)S[C@@H]2[C@H](NC(=O)[C@H](N)c3ccccc3)C(=O)N2[C@H]1C(=O)O	Enterobacter cloacae		clinical isolate RKI-No_243/15			MIC	> 16 µg/mL
CCN(c1cc(-c2ccc(CN3CCOCC3)cc2)cc(C(=O)NCc2c(C)cc(C)[nH]c2=O)c1C)C1CCOCC1	Protein arginine N-methyltransferase 5, with WDR77 (PRMT5, Homo sapiens, UniProt O14744)	enzyme activity, inhibitor		1 µM		inhibition	2 ± 6%
